Measurements gathered from unrelated publications.
Protocols differ between the studies behind these lines. ± gives the spread as reported.

SMILES	cell line	test	setting	IC50 [µM]
CCCCCCCCCC(=O)Oc1c(C)c(OC)c2c(/C=C/c3ccccc3)c(CCCCCCCC)c(=O)oc2c1C	KKU-M213	cell growth or viability, SRB	72 h	> 50
Cc1cc(Cl)cc(-c2ccnc3cc(CN4C(=O)C5C(C4=O)C5(C)C)sc23)c1C[C@@H]1CNCCO1 (stereo partly drawn)	CAPAN-1	cell viability, SRB	5 days, mean of replicates	0.17
Cc1c2ccnc(C(=O)N[C@H](C)CN(C)C)c2cc2c3cc(OCCCN4CCN(C)CC4)ccc3n(C)c12	HEK293T (G4C2)66-No-ATG-GFP reporter	RAN translation of r(G4C2)exp, fluorescence reporter		0.1
COc1ccc(CNc2ccc3c(c2)S(=O)(=O)C=C3)cc1	glioblastoma cell lines	resazurin	24 h, approximate value	~2
Cc1cc2cc(C(=O)N(Cc3ccc(C(F)(F)F)cn3)[C@H](C)c3ncccn3)ccc2nc1N	BXPC-3	cell growth		0.073
O=C(CN1CCN(C(=O)c2ccc(C(F)(F)F)cc2)CC1)Nc1cccc(C(=O)Nc2ccc3[nH]ncc3c2)c1	KM12-Luc (TPM3-NTRK1)	cell growth, CellTiter-Glo	72 h	49.2 ± 1.69
Nc1nnc(-c2ccccc2O)cc1N1CC2CCC(C1)N2c1ccnc(C#CCCN2CCCCCC2)c1	HCC515	cell growth or viability, ATP luminescence	7 days	0.0421
COc1c(C)c(OS(=O)(=O)c2ccccc2)c(C)c(OS(=O)(=O)c2ccccc2)c1C(=O)/C=C/c1ccccc1	KKU-M213	cell growth or viability, SRB	72 h	> 50
CC(C)c1ccc(N(C)c2ccc3c(c2)OCC[C@H]3CNc2cnccc2C(=O)O)cc1	KYSE-270	cell growth or viability, ATP luminescence	7 days	0.00535
O=C1CCC(N2C(=O)c3ccc(N4CCC(C(=O)N5CCC(CCN6CCC(CNC(=O)c7cccc(-c8noc(C(F)(F)F)n8)c7)(c7nc(-c8ccccc8)cs7)CC6)CC5)CC4)cc3C2=O)C(=O)N1 (stereo not drawn)	SU-DHL-2	cell growth or viability, CCK-8	7 days	0.56
CCCC(=O)Oc1c(C)c(OC)c2c(c1C)OC(=O)[C@@H](CC)[C@]2(O)/C=C/c1ccccc1 (racemic)	KKU-M213	cell growth or viability, SRB	72 h	> 50
O=C(Nc1ccc(C(=O)Nc2ccc3[nH]ncc3c2)c(F)c1)Nc1cc(C(F)(F)F)ccc1F	KM12-Luc (TPM3-NTRK1)	cell growth, CellTiter-Glo	72 h	9.7 ± 0.82
CC(C)Cc1ccc(C(C)C(=O)[O][Pt]([NH2])([NH2])([Cl])([Cl])[O]C(=O)C(Cl)Cl)cc1 (stereo not drawn)	LoVo oxaliplatin-resistant	cytotoxicity, MTT	72 h	> 3.12
CCNC(=S)NN=Cc1c2ccccc2cc2ccccc12.Cc1ccc(C(C)C)cc1.[Cl-].[Cl-].[Ru+2]	CCD-18Co	cytotoxicity, MTS	48 h	271 ± 8
NC(=O)c1ccc(-c2ccccc2Cl)c2c3c([nH]c12)CC[C@H](N)C3	BXPC-3	cell growth or viability		0.0301
O=C(/C=C/Sc1ccc(C(F)(F)F)cn1)c1ccccc1	HEK293T	viability, CellTiter-Glo	48 h	5.2
[BH3-][P+]1(C2CCCCC2)CCCCC1	SW480	cell growth or viability, MTT	72 h	> 100
CCCC(CCC)C(=O)[O][Pt]([NH2])([NH2])([Cl])([Cl])[O]C(=O)C(C)c1ccc(CC(C)C)cc1 (stereo not drawn)	LoVo oxaliplatin-resistant	cytotoxicity, MTT	72 h	0.84 ± 0.02
Cn1ncc(-c2ccc3c(=O)[nH]nc(CN)c3c2)c1-c1c(F)c(Cl)cc(OC2CC2)c1C#N	A-172	cell viability, inhibitor, CellTiter-Glo	120 h	0.02
Cc1ccccc1Nc1c(C2CN(C(=O)OC(C)(C)C)C2)nc2c(Br)c(F)ccn12	786-O			20.7
CNS(=O)(=O)Nc1nccc(Cc2c(C)c3ccc(Oc4ncccc4F)cc3oc2=O)c1F	RERF-LC-A1	cell viability, CellTiter-Glo	7 days	> 1
CCOc1cncc(-c2ccc(NC(=O)C3(c4ccnc(NS(=O)(=O)C5CC5)n4)CCOCC3)nc2)n1	human Breast cancer	cell proliferation, inhibitor, CellTiter-Glo viability	72 h, 0.1% DMSO	10
O=C(Nc1cc(C(=O)Nc2ccc3[nH]ncc3c2)ccc1F)Nc1cc(C(F)(F)F)ccc1F	KM12-Luc (TPM3-NTRK1)	cell growth, CellTiter-Glo	72 h	28.8 ± 4.73
O=C1CCP(=O)(c2ccccc2)CC1	SW480	cell growth or viability, MTT	72 h	> 100
CCCCCCCC(=O)Oc1c(C)c(OC)c2c(/C=C/c3ccccc3)c(CCCCCC)c(=O)oc2c1C	SH-SY5Y	cell growth or viability, SRB	72 h	> 50
O=C(NCc1cc(F)cc(F)c1)[C@@]1(O)CCN(c2ccc3[nH]ccc3c2)C1=O	KP-4	cell growth or viability		> 30
C=CC(=O)N1CCCC(n2c(=O)c3ncccc3n(Cc3ccc(Oc4ccccc4)cc3)c2=O)C1 (stereo not drawn)	SU-DHL-2	cell growth or viability, MTT	72 h	20

Some of these lines once more:
SMILES	cell line	test	setting	IC50 [µM]
CCCCCCCC(=O)Oc1c(C)c(OC)c2c(/C=C/c3ccccc3)c(CCCCCC)c(=O)oc2c1C	SH-SY5Y	cell growth or viability, SRB	72 h	> 50
O=C(NCc1cc(F)cc(F)c1)[C@@]1(O)CCN(c2ccc3[nH]ccc3c2)C1=O	KP-4	cell growth or viability		> 30
